{"data": "Measured values from different studies", "note": "A part holds a random share of what one study measured."}
{"data": "Study 1", "target": "Ras GTPase-activating protein-binding protein 1, C-terminal RGG region (G3BP1, Homo sapiens, UniProt Q13283)", "method": "RNA Bind-n-Seq", "molecule type": "RNA", "matrix": "in vitro", "concentration": "1 µM", "notes": "whole 134-nt RNA, ends assumed", "with": "150 mM KCl", "reference": "input library", "direction": "higher = stronger binding", "shared flanks, not repeated": "GGGAGUUCUACAGUCCGACGAUC … UGGAAUUCUCGGGUGUCAAGG", "sequence of UniProt Q13283 (whole entry, looked up)": "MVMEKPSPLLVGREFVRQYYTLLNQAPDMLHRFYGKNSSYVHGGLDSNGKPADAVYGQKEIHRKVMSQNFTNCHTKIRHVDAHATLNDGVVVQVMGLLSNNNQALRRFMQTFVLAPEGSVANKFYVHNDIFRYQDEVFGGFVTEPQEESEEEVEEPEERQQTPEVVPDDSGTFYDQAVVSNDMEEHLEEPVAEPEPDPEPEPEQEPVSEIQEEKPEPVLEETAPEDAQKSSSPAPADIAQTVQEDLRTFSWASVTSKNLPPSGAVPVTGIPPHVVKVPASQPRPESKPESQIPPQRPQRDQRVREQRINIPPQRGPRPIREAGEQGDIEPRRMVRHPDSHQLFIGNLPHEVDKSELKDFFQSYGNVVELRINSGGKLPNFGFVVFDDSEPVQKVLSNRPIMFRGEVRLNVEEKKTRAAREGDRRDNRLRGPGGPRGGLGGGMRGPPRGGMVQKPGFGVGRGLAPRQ"}
{"Sequence": "CCUCAAGUCCUGUGCUACACAUCGUAUGUACCGAAUCGGGCGGCGGGGCGGGAAAGUAUUAUGUUACGCCGUUCGGAUCUGCACUUCCAG", "log2 enrichment": 0.704}
{"Sequence": "CCUGUGCUACACAUCGUAUGUACCGAAUCGGGCCCCCCGGGGCCCCCCGGGCCCCCCGGGAAAGUAUUAUGUUACGCCGUUCGGAUCUGC", "log2 enrichment": -2.11}
{"Sequence": "UGGGAGGUGGAUUUUGUUUAUUUUUUUAGCUCAUUUCCAGGGGUGGGAAUUUUUUUUUACUAUGUGUCAUGAAUAAAGUUGUUUUUGAAA", "log2 enrichment": 3.59}
{"Sequence": "UGCCUGUAUGGAGUGGAAUGAAUGUUGCUGGUGUCUCUCUGAAGACUCUGCACCCAGAUUUAGGGACUGAUAAAGAUAAGGAACAGUGGA", "log2 enrichment": -0.944}
{"Sequence": "AGUCCUGUGCUACACAUCGUAUGUACCGAAUCGGAAAAAGGUUUUUGGAAAAAAAGGAAAGUAUUAUGUUACGCCGUUCGGAUCUGCACU", "log2 enrichment": -2.18}
{"Sequence": "ACCAUGUAGGUGGGCAUCUUUGGGAAGUGGGGCAAGGGGGGGAUAGGGAGGGGGGUAACACUUUGGGAACAGGUGGUCCCAGGUCGUUUC", "log2 enrichment": -0.833}
{"Sequence": "UCAAGUCCUGUGCUACACAUCGUAUGUACCGAAUCGGGAGGGUUUGGGUUUGGGAAAGUAUUAUGUUACGCCGUUCGGAUCUGCACUUCC", "log2 enrichment": 1.99}
{"Sequence": "CUCAAGUCCUGUGCUACACAUCGUAUGUACCGAAUCGGGGAAGGAAGGAAGGGAAAGUAUUAUGUUACGCCGUUCGGAUCUGCACUUCCA", "log2 enrichment": -1.11}
{"data": "Study 2", "target": "Replicase polyprotein 1ab, nsp13 helicase (rep, Severe acute respiratory syndrome coronavirus 2, UniProt P0DTD1)", "mode": "inhibitor", "concentration": "20 µM"}
{"Structure (SMILES)": "CN1CCc2c(c3ccccc3n2Cc2ccc(C(=O)NO)cc2)C1", "inhibition [%]": 3.7}
{"Structure (SMILES)": "NS(=O)(=O)c1nn2cc(-c3ccccc3)nc2s1", "inhibition [%]": 9.65}
{"Structure (SMILES)": "CCC(=O)c1ccc(OCC(O)CN2CCN(c3ccccc3)CC2)cc1 (stereo not drawn)", "inhibition [%]": 2.28}
{"Structure (SMILES)": "COC(=O)[C@H](c1ccccc1Cl)N1CCc2sccc2C1", "inhibition [%]": 0.68}
{"Structure (SMILES)": "Clc1ccc(C(Cn2ccnc2)OCc2c(Cl)cccc2Cl)c(Cl)c1 (stereo not drawn)", "inhibition [%]": 3.7}
{"Structure (SMILES)": "c1ccc2c(c1)CCC[C@H]2Nc1nc2ccccc2[nH]1", "inhibition [%]": -0.32}
{"Structure (SMILES)": "O=S(=O)(O)CCCS(=O)(=O)O", "inhibition [%]": 4.62}
{"Structure (SMILES)": "COc1cc(Nc2c(C#N)cnc3cc(OCCCN4CCN(C)CC4)c(OC)cc23)c(Cl)cc1Cl", "inhibition [%]": 17.2}
{"Structure (SMILES)": "Nc1nc(=O)n([C@H]2C[C@H](O)[C@@H](CO)O2)cc1Cl", "inhibition [%]": 9.41}
{"Structure (SMILES)": "CC(C)=CCC[C@](C)(O[C@@H]1O[C@H](CO)[C@@H](O)[C@H](O)[C@H]1O)[C@H]1CC[C@]2(C)[C@@H]1[C@H](O)C[C@@H]1[C@@]3(C)CC[C@H](O[C@@H]4O[C@H](CO)[C@@H](O)[C@H](O)[C@H]4O[C@@H]4O[C@H](CO)[C@@H](O)[C@H](O)[C@H]4O)C(C)(C)[C@@H]3CC[C@]12C", "inhibition [%]": 4.47}
{"Structure (SMILES)": "COc1ccc(C(=O)NCc2ccc(OCCN(C)C)cc2)cc1OC", "inhibition [%]": 9.12}
{"Structure (SMILES)": "Cc1cc(C)c2c(N)c(C(=O)NCc3ccc(Cl)cc3)sc2n1", "inhibition [%]": 10.1}
{"Structure (SMILES)": "c1cc(-c2cnn3cc(-c4ccc(N5CCNCC5)cc4)cnc23)c2cccnc2c1", "inhibition [%]": 4.41}
{"Structure (SMILES)": "CC(O)Cn1cnc2c1c(=O)n(C)c(=O)n2C (stereo not drawn)", "inhibition [%]": 3.81}
{"Structure (SMILES)": "COc1cc(Br)c(S(=O)(=O)Nc2ccc(C(F)(F)F)c(O[C@@H]3CCN(C)C3)c2)cc1OC", "inhibition [%]": 0.91}
{"Structure (SMILES)": "CCOC(=O)CCNc1cc(N2CCc3ccccc3CC2)nc(-c2ccccn2)n1", "inhibition [%]": -3.07}
{"Structure (SMILES)": "COc1cc2c(Nc3ccc(NC(=O)c4ccccc4)cc3)ncnc2cc1OCCCN1CCOCC1", "inhibition [%]": 7.95}
{"Structure (SMILES)": "Cc1c2oc3c(C)ccc(C(=O)N[C@@H]4C(=O)N[C@H](C(C)C)C(=O)N5CCC[C@H]5C(=O)N(C)CC(=O)N(C)[C@@H](C(C)C)C(=O)O[C@@H]4C)c3nc-2c(C(=O)N[C@@H]2C(=O)N[C@H](C(C)C)C(=O)N3CCC[C@H]3C(=O)N(C)CC(=O)N(C)[C@@H](C(C)C)C(=O)O[C@@H]2C)c(N)c1=O", "inhibition [%]": 102}
{"Structure (SMILES)": "COC(=O)c1ccc2c(c1)NC(=O)/C2=C(\\Nc1ccc(N(C)C(=O)CN2CCN(C)CC2)cc1)c1ccccc1", "inhibition [%]": 0.28}
{"Structure (SMILES)": "O=C(OCC(O)CO)c1ccccc1Nc1ccnc2c(C(F)(F)F)cccc12 (stereo not drawn)", "inhibition [%]": 7.72}
{"Structure (SMILES)": "COc1ccc(OC)c2c(=S)c3ccccc3[nH]c12", "inhibition [%]": 24.4}
{"Structure (SMILES)": "O=C1c2ccccc2-c2n[nH]c3cccc1c23", "inhibition [%]": 8.84}
{"Structure (SMILES)": "N[C@@H](Cc1c[nH]c2ccc(O)cc12)C(=O)O", "inhibition [%]": 8.71}
{"Structure (SMILES)": "CN(C)C(=O)C(=O)c1cn(C)c2cc(Cl)c(C(=O)N3CCC(Cc4ccc(F)cc4)CC3)cc12", "inhibition [%]": 4.09}
{"Structure (SMILES)": "c1cc2c3c(c1)c1c(n3CCNC2)CCCC1", "inhibition [%]": 3.89}
{"data": "Study 3", "target": "Centromere-binding protein 1, full length, N-terminal tag (CBF1, Saccharomyces cerevisiae, UniProt P17106, residues 1-351)", "method": "protein-binding microarray", "molecule type": "double-stranded DNA, one strand shown", "matrix": "in vitro", "concentration": "0.8 µM", "notes": "whole 60-bp probe, no competitor", "direction": "higher = stronger binding", "shared flanks, not repeated": "… GTCTTGATTCGCTTGACGCTGCTG", "sequence of UniProt P17106 (whole entry, looked up)": "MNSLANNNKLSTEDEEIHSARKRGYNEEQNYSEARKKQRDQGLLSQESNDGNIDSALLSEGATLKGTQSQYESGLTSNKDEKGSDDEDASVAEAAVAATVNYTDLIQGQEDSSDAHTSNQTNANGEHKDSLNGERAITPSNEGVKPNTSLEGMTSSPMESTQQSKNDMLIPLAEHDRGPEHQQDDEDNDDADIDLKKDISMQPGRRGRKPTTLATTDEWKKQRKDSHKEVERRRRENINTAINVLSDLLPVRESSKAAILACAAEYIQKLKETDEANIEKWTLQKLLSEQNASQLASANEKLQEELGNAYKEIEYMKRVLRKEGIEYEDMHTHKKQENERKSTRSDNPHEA"}
{"Sequence": "CTATTTTGTGGTCGGATCGTGCTTTTGCCACCCTTC", "fluorescence intensity [a.u.]": 526}
{"Sequence": "CCTAACTACTATAGTAACATCACATAGCTTCGTACA", "fluorescence intensity [a.u.]": 532}
{"Sequence": "CTATATTGTATGTACCACGCAATTGAAGTTTTCTTC", "fluorescence intensity [a.u.]": 526}
{"Sequence": "CCTAACTACTATAAGCACGACATATAGCTTCGTACA", "fluorescence intensity [a.u.]": 544}
{"Sequence": "GAATTGCGTTGGAGCCATCTCCTGAATTCCATTTAG", "fluorescence intensity [a.u.]": 507}
{"Sequence": "GAATATTAGTTGTAGCATGTGCTCATCTCCATGTAG", "fluorescence intensity [a.u.]": 854}
{"Sequence": "GAAAAAAGTTTTCTTCTGATGTTAAAGTGTGTGTAG", "fluorescence intensity [a.u.]": 523}
{"Sequence": "GAAATGCGGTCTATTCATGTGCATTCGCATATATAG", "fluorescence intensity [a.u.]": 532}
{"data": "Study 4", "target": "Replicase polyprotein 1ab, main protease (rep, Severe acute respiratory syndrome coronavirus 2, UniProt P0DTD1)", "observed": "enzyme activity", "mode": "inhibitor"}
{"Compound": "O=[N+]([O-])c1ccc(Sc2cccc[n+]2[O-])c2nonc12", "IC50": "0.53 µM"}
{"Compound": "CN(C)S(=O)(=O)c1cccc(-n2sc3ccccc3c2=O)c1", "IC50": "0.01 µM"}
{"Compound": "CC(=O)O/N=C1/C(=O)N(Cc2cc(Cl)ccc2Cl)c2ccc(Cl)cc21", "IC50": "13.2 µM"}
{"Compound": "CCOc1cc(C(Nc2cc(C)ccn2)c2ccc3cccnc3c2O)ccc1OC (stereo not drawn)", "IC50": "> 20 µM"}
{"Compound": "N=C(N)N=Nc1ccc(NNC(=N)S)cc1", "IC50": "9.3 µM"}
{"data": "Study 5", "cell line": "HEK-293T", "observed": "pseudovirus infection", "method": "FDA-approved drug library screen", "organism": "VSV pseudotyped with SARS-CoV-2 spike", "concentration": "10 µM", "time": "16 h", "reference": "vehicle-treated"}
{"SMILES": "Cc1oncc1C(=O)Nc1ccc(C(F)(F)F)cc1", "GFP-positive cells [%]": 86.4}
{"SMILES": "CC(=O)Nc1ccc(O)cc1", "GFP-positive cells [%]": 70.6}
{"SMILES": "C[C@]12CC[C@@H]3c4ccc(OS(=O)(=O)O)cc4CC[C@H]3[C@@H]1CCC2=O", "GFP-positive cells [%]": 104}
{"SMILES": "CNC[C@H](O)c1cccc(O)c1", "GFP-positive cells [%]": 71.9}
{"SMILES": "O=C1CCC(N2C(=O)c3ccccc3C2=O)C(=O)N1 (stereo not drawn)", "GFP-positive cells [%]": 116}
{"note": "Repeated from above (study 1):"}
{"Sequence": "CCUCAAGUCCUGUGCUACACAUCGUAUGUACCGAAUCGGGCGGCGGGGCGGGAAAGUAUUAUGUUACGCCGUUCGGAUCUGCACUUCCAG", "log2 enrichment": 0.704}
{"Sequence": "CCUGUGCUACACAUCGUAUGUACCGAAUCGGGCCCCCCGGGGCCCCCCGGGCCCCCCGGGAAAGUAUUAUGUUACGCCGUUCGGAUCUGC", "log2 enrichment": -2.11}
{"Sequence": "UGGGAGGUGGAUUUUGUUUAUUUUUUUAGCUCAUUUCCAGGGGUGGGAAUUUUUUUUUACUAUGUGUCAUGAAUAAAGUUGUUUUUGAAA", "log2 enrichment": 3.59}
{"Sequence": "UGCCUGUAUGGAGUGGAAUGAAUGUUGCUGGUGUCUCUCUGAAGACUCUGCACCCAGAUUUAGGGACUGAUAAAGAUAAGGAACAGUGGA", "log2 enrichment": -0.944}
{"Sequence": "AGUCCUGUGCUACACAUCGUAUGUACCGAAUCGGAAAAAGGUUUUUGGAAAAAAAGGAAAGUAUUAUGUUACGCCGUUCGGAUCUGCACU", "log2 enrichment": -2.18}
{"Sequence": "ACCAUGUAGGUGGGCAUCUUUGGGAAGUGGGGCAAGGGGGGGAUAGGGAGGGGGGUAACACUUUGGGAACAGGUGGUCCCAGGUCGUUUC", "log2 enrichment": -0.833}
{"Sequence": "UCAAGUCCUGUGCUACACAUCGUAUGUACCGAAUCGGGAGGGUUUGGGUUUGGGAAAGUAUUAUGUUACGCCGUUCGGAUCUGCACUUCC", "log2 enrichment": 1.99}
{"Sequence": "CUCAAGUCCUGUGCUACACAUCGUAUGUACCGAAUCGGGGAAGGAAGGAAGGGAAAGUAUUAUGUUACGCCGUUCGGAUCUGCACUUCCA", "log2 enrichment": -1.11}
